Experimental data from different studies.
Each numbered part is a random draw from the data of one study; scales do not carry over between parts. Positions count from the first letter of the parent shown.

Series 1
Target: BIRC6 UBC core domain (UniProt Q9NR09)
Sequence of UniProt Q9NR09 (whole entry, looked up): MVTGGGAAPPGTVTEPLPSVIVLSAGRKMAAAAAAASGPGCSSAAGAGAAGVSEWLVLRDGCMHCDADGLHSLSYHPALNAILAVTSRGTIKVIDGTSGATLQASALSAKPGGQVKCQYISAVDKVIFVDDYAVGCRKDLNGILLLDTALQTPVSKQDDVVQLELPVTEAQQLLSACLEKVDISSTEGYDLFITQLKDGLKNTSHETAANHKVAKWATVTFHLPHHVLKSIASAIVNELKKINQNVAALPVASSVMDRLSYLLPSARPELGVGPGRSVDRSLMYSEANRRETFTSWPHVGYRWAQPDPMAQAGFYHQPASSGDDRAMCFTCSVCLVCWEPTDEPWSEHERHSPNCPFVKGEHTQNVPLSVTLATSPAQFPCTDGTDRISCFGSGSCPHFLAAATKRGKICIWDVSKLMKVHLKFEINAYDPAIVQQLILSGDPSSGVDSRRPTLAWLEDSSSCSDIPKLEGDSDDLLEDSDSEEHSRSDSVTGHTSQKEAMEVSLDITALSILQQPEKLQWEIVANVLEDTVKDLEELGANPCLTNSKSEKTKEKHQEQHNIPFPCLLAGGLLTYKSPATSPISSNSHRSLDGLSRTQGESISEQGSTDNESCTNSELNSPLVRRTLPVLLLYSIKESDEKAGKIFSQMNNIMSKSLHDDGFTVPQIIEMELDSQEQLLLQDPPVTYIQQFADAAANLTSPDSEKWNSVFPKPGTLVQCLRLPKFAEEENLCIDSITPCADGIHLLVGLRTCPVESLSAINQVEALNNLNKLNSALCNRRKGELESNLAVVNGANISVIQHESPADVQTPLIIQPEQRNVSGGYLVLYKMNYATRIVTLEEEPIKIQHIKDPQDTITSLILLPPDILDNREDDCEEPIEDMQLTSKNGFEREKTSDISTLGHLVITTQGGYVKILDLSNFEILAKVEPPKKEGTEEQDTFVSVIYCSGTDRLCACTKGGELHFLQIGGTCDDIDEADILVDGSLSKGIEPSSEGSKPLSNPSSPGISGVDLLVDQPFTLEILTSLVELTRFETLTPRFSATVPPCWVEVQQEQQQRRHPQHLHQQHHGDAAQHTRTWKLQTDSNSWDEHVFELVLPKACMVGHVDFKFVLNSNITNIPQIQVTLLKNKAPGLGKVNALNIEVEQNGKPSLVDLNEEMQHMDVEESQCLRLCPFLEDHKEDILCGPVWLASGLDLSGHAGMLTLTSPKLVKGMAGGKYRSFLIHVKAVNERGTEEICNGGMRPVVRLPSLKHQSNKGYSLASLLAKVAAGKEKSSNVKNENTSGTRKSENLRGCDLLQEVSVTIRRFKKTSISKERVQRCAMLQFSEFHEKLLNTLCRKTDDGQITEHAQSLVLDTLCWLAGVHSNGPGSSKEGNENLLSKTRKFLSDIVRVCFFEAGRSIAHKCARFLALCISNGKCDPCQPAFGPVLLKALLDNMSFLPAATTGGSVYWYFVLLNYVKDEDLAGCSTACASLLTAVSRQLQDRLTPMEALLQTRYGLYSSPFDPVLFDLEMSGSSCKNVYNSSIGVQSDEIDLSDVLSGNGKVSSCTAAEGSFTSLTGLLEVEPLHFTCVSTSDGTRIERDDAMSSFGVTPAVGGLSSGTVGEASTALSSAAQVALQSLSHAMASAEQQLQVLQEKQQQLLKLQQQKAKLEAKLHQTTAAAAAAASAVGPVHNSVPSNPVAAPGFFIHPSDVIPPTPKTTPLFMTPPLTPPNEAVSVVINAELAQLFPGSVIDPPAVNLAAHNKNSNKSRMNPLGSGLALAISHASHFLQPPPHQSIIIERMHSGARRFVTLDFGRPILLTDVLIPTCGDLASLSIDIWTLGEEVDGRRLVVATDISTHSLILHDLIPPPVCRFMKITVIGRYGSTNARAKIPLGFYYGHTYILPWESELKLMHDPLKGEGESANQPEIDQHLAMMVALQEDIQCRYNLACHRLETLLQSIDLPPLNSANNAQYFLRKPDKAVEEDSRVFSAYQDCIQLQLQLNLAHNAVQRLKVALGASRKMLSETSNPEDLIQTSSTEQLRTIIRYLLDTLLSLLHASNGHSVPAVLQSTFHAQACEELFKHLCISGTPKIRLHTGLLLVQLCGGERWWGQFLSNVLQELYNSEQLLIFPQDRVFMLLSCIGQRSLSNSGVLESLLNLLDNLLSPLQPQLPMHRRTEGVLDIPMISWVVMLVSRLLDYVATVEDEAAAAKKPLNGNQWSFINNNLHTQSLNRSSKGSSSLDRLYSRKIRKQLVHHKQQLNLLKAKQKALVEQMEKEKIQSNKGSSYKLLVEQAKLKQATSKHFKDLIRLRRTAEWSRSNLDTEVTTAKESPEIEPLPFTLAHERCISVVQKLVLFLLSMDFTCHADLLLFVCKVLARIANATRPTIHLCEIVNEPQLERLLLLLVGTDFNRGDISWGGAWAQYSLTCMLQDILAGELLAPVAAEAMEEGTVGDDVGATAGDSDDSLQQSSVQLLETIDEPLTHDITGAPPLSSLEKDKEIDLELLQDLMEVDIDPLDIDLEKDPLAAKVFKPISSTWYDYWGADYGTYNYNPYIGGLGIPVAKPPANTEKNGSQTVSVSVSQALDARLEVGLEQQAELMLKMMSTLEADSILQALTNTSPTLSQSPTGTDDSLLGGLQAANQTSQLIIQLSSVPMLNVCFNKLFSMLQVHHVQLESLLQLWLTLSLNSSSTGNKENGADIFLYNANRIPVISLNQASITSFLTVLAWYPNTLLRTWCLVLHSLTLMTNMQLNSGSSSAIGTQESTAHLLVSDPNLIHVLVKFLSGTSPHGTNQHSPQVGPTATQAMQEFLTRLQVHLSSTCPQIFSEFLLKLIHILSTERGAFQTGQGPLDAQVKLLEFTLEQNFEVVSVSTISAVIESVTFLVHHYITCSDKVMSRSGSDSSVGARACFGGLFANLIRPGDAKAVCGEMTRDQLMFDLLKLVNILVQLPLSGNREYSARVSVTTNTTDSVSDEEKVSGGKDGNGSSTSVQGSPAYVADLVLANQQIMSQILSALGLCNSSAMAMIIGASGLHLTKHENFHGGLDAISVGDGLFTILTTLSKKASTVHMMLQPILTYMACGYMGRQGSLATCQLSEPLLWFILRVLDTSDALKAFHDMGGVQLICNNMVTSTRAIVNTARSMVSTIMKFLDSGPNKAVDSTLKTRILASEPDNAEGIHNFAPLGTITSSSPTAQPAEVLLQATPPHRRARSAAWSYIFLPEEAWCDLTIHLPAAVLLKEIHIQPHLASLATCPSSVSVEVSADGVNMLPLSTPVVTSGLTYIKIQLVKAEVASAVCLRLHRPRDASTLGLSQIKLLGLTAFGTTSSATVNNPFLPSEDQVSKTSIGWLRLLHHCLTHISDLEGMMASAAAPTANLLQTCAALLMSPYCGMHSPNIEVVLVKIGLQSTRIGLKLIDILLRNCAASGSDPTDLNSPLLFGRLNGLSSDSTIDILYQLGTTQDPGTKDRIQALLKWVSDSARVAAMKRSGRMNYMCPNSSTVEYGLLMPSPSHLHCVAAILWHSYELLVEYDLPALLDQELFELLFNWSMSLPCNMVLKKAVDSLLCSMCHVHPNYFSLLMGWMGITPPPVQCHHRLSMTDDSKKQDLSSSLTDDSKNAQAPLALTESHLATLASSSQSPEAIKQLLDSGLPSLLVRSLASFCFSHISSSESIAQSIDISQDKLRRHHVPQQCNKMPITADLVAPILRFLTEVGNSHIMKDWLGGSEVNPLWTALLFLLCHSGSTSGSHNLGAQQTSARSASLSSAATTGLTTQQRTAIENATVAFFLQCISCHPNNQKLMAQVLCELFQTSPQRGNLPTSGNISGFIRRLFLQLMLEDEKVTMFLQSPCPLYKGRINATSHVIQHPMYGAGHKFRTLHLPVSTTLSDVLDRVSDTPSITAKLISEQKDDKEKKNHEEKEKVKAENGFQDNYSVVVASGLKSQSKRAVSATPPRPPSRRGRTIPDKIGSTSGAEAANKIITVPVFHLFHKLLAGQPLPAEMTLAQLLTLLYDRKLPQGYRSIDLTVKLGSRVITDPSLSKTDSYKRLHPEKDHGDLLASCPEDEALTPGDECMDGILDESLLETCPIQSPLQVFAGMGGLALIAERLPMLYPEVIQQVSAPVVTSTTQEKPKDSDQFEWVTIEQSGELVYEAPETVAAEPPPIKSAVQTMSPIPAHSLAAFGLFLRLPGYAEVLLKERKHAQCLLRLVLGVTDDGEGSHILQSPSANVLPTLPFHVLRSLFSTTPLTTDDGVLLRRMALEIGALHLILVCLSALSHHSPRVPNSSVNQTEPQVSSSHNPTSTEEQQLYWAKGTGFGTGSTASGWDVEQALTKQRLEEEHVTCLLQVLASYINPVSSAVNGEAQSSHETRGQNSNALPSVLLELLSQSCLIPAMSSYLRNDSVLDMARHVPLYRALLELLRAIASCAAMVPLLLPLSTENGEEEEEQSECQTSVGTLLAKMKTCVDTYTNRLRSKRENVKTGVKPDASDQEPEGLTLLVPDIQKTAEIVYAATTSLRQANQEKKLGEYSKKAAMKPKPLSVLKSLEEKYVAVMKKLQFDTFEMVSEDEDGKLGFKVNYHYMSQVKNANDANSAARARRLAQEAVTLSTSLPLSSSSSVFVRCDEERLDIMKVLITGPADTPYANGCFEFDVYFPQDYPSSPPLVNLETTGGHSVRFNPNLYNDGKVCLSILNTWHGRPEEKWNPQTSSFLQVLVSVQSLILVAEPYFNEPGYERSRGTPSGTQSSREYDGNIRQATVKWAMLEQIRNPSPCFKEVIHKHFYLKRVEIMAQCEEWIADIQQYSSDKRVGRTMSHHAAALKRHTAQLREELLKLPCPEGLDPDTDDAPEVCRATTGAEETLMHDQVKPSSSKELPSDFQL
Technique: yeast two-hybrid
Medium: yeast
Notes: mostly zero background
Reference: not given
Direction: higher = stronger interaction
Quantity: lacZ reporter activity
B1: TRIM62 RING domain (UniProt Q9BVG3); chain MACSLKDELLCSICLSIYQDPVSLGCEHYFCRRCITEHWVRQEAQGARDCPECRRTFAEPALAP
B2: UBOX5 RING domain (UniProt O94941); chain EQPGSILGPECASCKRVFSPYFKKEPVYQLPCGHLLCRPCLGEKQRSLPMTCTACQRPVASQDVLR
B3: RNF19A RING domain (UniProt Q9NV58); chain ISKQIGDFIECPLCLLRHSKDRFPDIMTCHHRSCVDCLRQYLRIEISESRVNISCPECTERFNPHDIR
B4: MAP3K1 RING domain (UniProt Q13233); chain NSIKDEEEQMCPICLLGMLDEESLTVCEDGCRNKLHHHCMSIWAEECRRNREPLICPLCRSKWRSHDFYS
B5: MDM4 RING domain (UniProt O15151); chain MEDCQNLLKPCSLCEKRPRDGNIIHGRTGHLVTCFHCARRLKKAGASCPICKKEIQLVIKVF
B6: DTX2 RING domain (UniProt Q86UW9); chain EELKVPPDEDCIICMEKLSTASGYSDVTDSKAIGSLAVGHLTKCSHAFHLLCLLAMYCNGNKDGSLQCPSCKTIYGEKTGTQ
B7: RNF133 RING domain (UniProt Q8WVZ7); chain DEEINPNGDSCVICFERYKPNDIVRILTCKHFFHKNCIDPWILPHGTCPICKCDILKVLGIQ
B8: RBCK1 RING domain (UniProt Q9BYM8); chain SLVLNTEPAECPVCYSVLAPGEAVVLRECLHTFCRECLQGTIRNSQEAEVSCPFIDNTYSCSGKLLEREIK
AVPSGLEENLCKICMDSPIDCVLLECGHMVTCTKCGKRMNECPICRQYVIRAVHVF (RFFL RING domain (UniProt Q8WZ73)): 0
B1 (TRIM62 RING domain): 0
B2 (UBOX5 RING domain): 0
B3 (RNF19A RING domain): 0
B4 (MAP3K1 RING domain): 0
B5 (MDM4 RING domain): 0
GSDDEEIPFKCFICRQSFQNPVVTKCRHYFCESCALQHFRTTPRCYVCDQQTNGVFNPA (RNF113A RING domain (UniProt O15541)): 0
B6 (DTX2 RING domain): 0
B7 (RNF133 RING domain): 0
B8 (RBCK1 RING domain): 0
FDGDVDPDLKCALCHKVLEDPLTTPCGHVFCAGCVLPWVVQEGSCPARCRGRLSAKELN (PDZRN3 RING domain (UniProt Q9UPQ7)): 0

Series 2
Target: CCND1, cyclin fold, Cln2 fusion (human)
Technique: yeast growth competition, sequencing
Medium: yeast
Notes: weak parent motif
Reference: not given
Direction: higher = stronger binding
Quantity: normalised enrichment score
Starting sequence: ORC1 docking peptide (human); PRARKRLELGNLG
PRARKRLELGMLG [N11M]: 0.587
PRARKRLEWGNLG [L9W]: -0.0232
PRARHRLELGNLG [K5H]: -0.0553
PRWRKRLELGNLG [A3W]: 0.233
PRARKRLELGNLI [G13I]: -0.00816
PRARKRLELGNLC [G13C]: 0.0581
PRARKRSELGNLG [L7S]: -0.341
PEARKRLELGNLG [R2E]: 0.653
PRARKRLELGNLF [G13F]: 0.344
PTARKRLELGNLG [R2T]: 0.417
PRARKRLEEGNLG [L9E]: -0.233
PRARFRLELGNLG [K5F]: 0.0693
PRARKRLEPGNLG [L9P]: -0.487
PRARKRLELGNCG [L12C]: 0.0994
PRARKRLELGNWG [L12W]: 0.629
PRARKRLELGNLD [G13D]: 0.0153
PRARKRLELGNDG [L12D]: -0.455
PRARKYLELGNLG [R6Y]: 0.162
PRARVRLELGNLG [K5V]: -0.359
PRARKRLENGNLG [L9N]: -0.088

Series 3
Target: Interferon regulatory factor 7, full length, phosphomimetic (IRF7, Homo sapiens, UniProt Q92985, residues 1-503, S471D/S472D/S475D/S476D/S477D/S483D/S484D/S487D)
Technique: protein-binding microarray
Form: double-stranded DNA, one strand shown
Medium: in vitro
Tested at: 2200 nM top
Notes: 60-bp whole probe
Added: salmon DNA 0.4 mg/ml
Reference: random background probes
Direction: higher = stronger binding
Quantity: fitted relative affinity
Constant ends, left off below: GCCTAGCAC … GTCTTGATTCGCTTGACGCTGCTG
Residues (chain): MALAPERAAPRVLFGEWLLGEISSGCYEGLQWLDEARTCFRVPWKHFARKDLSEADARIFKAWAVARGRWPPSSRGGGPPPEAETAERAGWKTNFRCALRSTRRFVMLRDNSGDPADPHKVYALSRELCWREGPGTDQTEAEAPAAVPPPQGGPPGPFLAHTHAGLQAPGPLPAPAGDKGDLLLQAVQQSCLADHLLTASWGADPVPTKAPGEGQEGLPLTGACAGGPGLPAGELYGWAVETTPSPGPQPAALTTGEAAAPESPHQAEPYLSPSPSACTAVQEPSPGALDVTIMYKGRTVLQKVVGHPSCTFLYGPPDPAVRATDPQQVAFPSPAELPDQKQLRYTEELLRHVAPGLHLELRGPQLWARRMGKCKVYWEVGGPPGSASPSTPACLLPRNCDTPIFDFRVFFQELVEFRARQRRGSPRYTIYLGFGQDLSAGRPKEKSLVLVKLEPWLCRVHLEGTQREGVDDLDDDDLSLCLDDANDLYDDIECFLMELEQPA
TCAGATCTCAGTCTCGATTAGTGCTAG: 0.704 z-score
TTAGGTTCCCTTTTCCTTTTGTGCTAG: 4.68 z-score
CACGGTTTCGACTTTCGGGACGTGCTA: 8.96 z-score
TTAGATTTCAGTCTCGAATAGTGCTAG: 0.566 z-score
TTGGGTTTCGACACTGGGTTAGTGCTA: 1.79 z-score
GACGGTATTCTTCTCCTGACGTGCTAG: 0.995 z-score
TTAGGTTTCGGGCTGGGTTAGTGCTAG: 3.33 z-score
TTAGGTCTCGGTTTCGGTTGGTGCTAG: 8.52 z-score
GACGGTAACGGACTGGGGACGTGCTAG: -0.739 z-score
GATGATTTCGGGTTTCGAGACGTGCTA: 5.65 z-score
GACGATCTCGGTCTCGGGACGTGCTAG: 0.147 z-score
TAAGGTTTCGACACTGGGTTAGTGCTA: 1.96 z-score
TTAGGACTGGACACTCGGTTAGTGCTA: -0.055 z-score
TCAGGACTGCTTCTCCTTTAGTGCTAG: 0.981 z-score
GACGGTTTCGGTTTCGGGATGTGCTAG: 15.4 z-score
TCAATTTTTACCCTCCTACTGTGCTAG: 1.9 z-score
GACGGTCTCGGTCTAGGGACGTGCTAG: -0.282 z-score
GACGGACTGCTTATCCTGTCGTGCTAG: 0.951 z-score
TTAGAACTGGCGTATCGATTAGTGCTA: -0.771 z-score
TCAGTTTCCAGTATATTACTGTGCTAG: 2.99 z-score
GACGGTTTCCTTATCCTGACGTGCTAG: 3.02 z-score
TCAACAATGGCTTTGCCACTGTGCTAG: -0.198 z-score
TTAGATTTCAGTTTCGAGTAGTGCTAG: 5.4 z-score

Series 4
Target: Sal-like protein 4, full length isoform A (SALL4, Homo sapiens, UniProt Q9UJQ4, residues 1-1053)
Technique: universal PBM
Form: double-stranded DNA, one strand shown
Medium: in vitro
Tested at: 600 nM
Notes: 8-mer, flanks averaged, mean of replicates
Direction: higher = stronger binding
Quantity: E-score
CTAGCTAA: -0.136
AAAGTAAA: 0.344
CCGCTCGA: -0.32
CACCGTCC: -0.297
AAGCGGAC: -0.27
GAGGGGAC: -0.325
ATGATTGC: 0.212
AATCCATC: 0.0815
CGACACAA: -0.0861
ACATGGCG: -0.196
AGCGACAA: -0.0536
CTAATGGA: 0.0825
AGATTTCG: 0.0812
ACCACGGT: -0.204
GAACGGGC: -0.199
GGCAGTAC: -0.106
ATGCCCGC: -0.244
GACAACCA: 0.0563
CCCAGAAG: -0.216

Series 5
Target: ATF5, bZIP domain (human)
Technique: DHFR protein complementation
Medium: yeast
Notes: single substitutions, most at no-binding floor
Reference: wild-type JUN-FOS pair
Direction: higher = stronger binding
Quantity: binding fitness
Starting sequence: JUN, bZIP domain (human); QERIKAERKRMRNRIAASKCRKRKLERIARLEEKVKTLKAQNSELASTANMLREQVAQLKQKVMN; partner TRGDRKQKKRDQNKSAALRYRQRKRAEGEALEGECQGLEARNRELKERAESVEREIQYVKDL
R30Y: -1.46 natural log
E33R: -1.43 natural log
A49H: -1.3 natural log
K36T: -1.54 natural log
A49V: -1.43 natural log
V35E: -1.27 natural log
Q55A: -1.18 natural log
E33M: -1.35 natural log
E44W: -1.46 natural log
R53P: -1.46 natural log
E44K: -1.4 natural log
L45P: -1.54 natural log
K36Y: -1.24 natural log
L45N: -1.54 natural log
L38G: -1.47 natural log
E33V: -1.42 natural log

Series 6
Target: ABI1, truncated, D143A, DHFR fusion (Arabidopsis thaliana)
Technique: DHFR PCA, deep sequencing
Medium: yeast
Notes: methotrexate growth selection, single substitutions
Added: (+)-ABA 4.8 µM
Reference: wild-type fitted maximum
Direction: higher = stronger binding
Quantity: relative binding score
Starting sequence: PYL1, truncated, DHFR fusion (Arabidopsis thaliana); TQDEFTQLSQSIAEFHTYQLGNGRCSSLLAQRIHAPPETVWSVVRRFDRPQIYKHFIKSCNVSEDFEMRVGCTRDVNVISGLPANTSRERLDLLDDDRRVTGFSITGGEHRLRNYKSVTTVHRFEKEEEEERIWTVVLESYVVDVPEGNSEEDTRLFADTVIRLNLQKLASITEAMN; partner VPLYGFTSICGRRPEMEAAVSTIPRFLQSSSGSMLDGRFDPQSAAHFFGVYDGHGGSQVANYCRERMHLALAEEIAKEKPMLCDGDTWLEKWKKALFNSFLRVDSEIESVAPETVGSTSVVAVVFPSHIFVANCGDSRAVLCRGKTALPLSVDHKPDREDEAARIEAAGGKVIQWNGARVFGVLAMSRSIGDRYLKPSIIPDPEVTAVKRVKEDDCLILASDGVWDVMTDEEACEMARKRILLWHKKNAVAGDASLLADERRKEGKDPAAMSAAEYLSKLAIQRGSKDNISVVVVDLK
N22M: 70.9%
D153A: -2.15%
Q51D: 69.1%
Q167V: 45.1%
T106H: 27.5%
R88Y: 66.2%
I57Y: -4.1%
D97M: 60.3%
D96H: 7.34%
L164F: 79.8%
S27R: 16.6%
R98F: 5.66%
Y141F: 17.6%
A158G: 0.367%
E152I: 41.1%
L29V: 71.4%
H110R: 5.65%
V136F: 37.1%
T173E: 5.4%
R163M: 32.7%

Series 7
Target: PABPC1L2, full length, GST fusion (mouse, UniProt A0ABA7IW68)
Technique: RNAcompete
Form: RNA
Medium: in vitro
Tested at: 20 nM
Notes: 7-mer, probes averaged, single round
Reference: mean of 7-mers
Direction: higher = stronger binding
Quantity: 7-mer Z-score
Residues (chain): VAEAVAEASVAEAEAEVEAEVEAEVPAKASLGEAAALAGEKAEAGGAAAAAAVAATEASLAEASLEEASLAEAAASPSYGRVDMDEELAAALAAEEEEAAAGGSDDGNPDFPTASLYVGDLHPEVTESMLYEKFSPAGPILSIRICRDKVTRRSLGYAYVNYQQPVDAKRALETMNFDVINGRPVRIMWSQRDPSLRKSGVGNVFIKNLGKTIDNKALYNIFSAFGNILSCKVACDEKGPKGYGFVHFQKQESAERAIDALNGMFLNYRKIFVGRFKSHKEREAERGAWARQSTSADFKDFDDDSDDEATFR
GGUGUCG: -0.0844
AUGAGGG: 0.211
AGAAACU: 0.805
CGUGCCG: -0.151
GUUACUG: -0.266
AAUAUGA: 0.367
CUUCGCG: -0.219
CUACUAC: -0.191
GAGGAGC: 0.0297
AUGAAGG: 0.122
GUCCCGA: -0.249
CCAAUAU: -0.2
UGCCGUG: -0.266
CUCCACC: -0.267
CUCAGAG: -0.164
CAUGACA: 0.137
CUGUUAU: -0.383

A few entries again (series 7):
CGUGCCG: -0.151
GUUACUG: -0.266
AAUAUGA: 0.367
CUUCGCG: -0.219
CUACUAC: -0.191
GAGGAGC: 0.0297
AUGAAGG: 0.122
GUCCCGA: -0.249
CCAAUAU: -0.2
UGCCGUG: -0.266
CUCCACC: -0.267
CUCAGAG: -0.164
CAUGACA: 0.137
CUGUUAU: -0.383
